# Experimental data from different studies.
# Parts stem from different laboratories: compare values within a part only. Changes are numbered by the printed parent chain.

# Set 1
# Target: CREM, bZIP domain (human)
# Technique: DHFR protein complementation
# Medium: yeast
# Notes: single substitutions, most at no-binding floor
# Baseline: wild-type JUN-FOS pair
# Reading: higher = stronger binding
# Starting sequence: JUN, bZIP domain (human); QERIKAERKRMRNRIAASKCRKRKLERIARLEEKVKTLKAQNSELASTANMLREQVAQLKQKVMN; partner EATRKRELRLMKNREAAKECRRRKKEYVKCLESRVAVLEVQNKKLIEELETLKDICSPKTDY
Substitution,binding fitness
E44R,-1.42 natural log
K36C,-1.23 natural log
S43Q,-1.43 natural log
S47F,-1.44 natural log
L52H,-1.54 natural log
L45F,-1.42 natural log
L38P,-1.53 natural log
N42I,-1.47 natural log
V35F,-1.42 natural log
A46S,-1.42 natural log
L38H,-1.44 natural log
N42Q,-1.42 natural log
A29M,-1.39 natural log
S43C,-1.53 natural log
K36W,-1.52 natural log

# Set 2
# Target: ABI1, truncated, D143A, DHFR fusion (Arabidopsis thaliana)
# Technique: DHFR PCA, deep sequencing
# Medium: yeast
# Notes: methotrexate growth selection, single substitutions
# Added: (+)-ABA 0.032 µM
# Baseline: wild-type fitted maximum
# Reading: higher = stronger binding
# Starting sequence: PYL1, truncated, DHFR fusion (Arabidopsis thaliana); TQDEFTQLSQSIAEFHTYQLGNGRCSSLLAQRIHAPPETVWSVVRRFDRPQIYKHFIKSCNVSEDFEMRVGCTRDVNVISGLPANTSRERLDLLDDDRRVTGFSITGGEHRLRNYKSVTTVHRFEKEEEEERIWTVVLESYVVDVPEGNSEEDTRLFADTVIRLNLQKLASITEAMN; partner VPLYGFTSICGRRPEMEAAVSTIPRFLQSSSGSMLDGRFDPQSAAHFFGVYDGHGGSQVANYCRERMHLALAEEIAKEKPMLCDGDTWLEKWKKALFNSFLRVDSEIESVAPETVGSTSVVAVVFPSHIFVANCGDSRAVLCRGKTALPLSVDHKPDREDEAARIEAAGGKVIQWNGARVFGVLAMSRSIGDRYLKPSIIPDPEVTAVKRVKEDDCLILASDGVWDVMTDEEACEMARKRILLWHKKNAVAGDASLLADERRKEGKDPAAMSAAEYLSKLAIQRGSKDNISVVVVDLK
Substitution,relative binding score
I172M,1.9%
E127K,50.3%
T106G,1.36%
E14D,6%
E174L,-2.07%
R46M,3.74%
L28Q,-0.344%
D92S,5.38%
L8A,8.26%
V136P,-0.724%
C72Y,-1.06%
R113P,64.3%
R155Q,3.06%
R46H,1.14%
T17P,0.952%
R155T,2.38%
N61A,33.5%
V40I,-6.86%
V43W,-5.12%
L166F,-3.52%
Q2Y,64.8%
H122M,2.13%
A170K,46.3%
K54D,-5.18%
K116I,-3.24%

# Set 3
# Target: Histone acetyltransferase KAT6A, winged helix 2, GST fusion (KAT6A, Homo sapiens, UniProt Q92794, residues 85-181)
# Technique: protein binding microarray
# Molecule type: double-stranded DNA, one strand shown
# Medium: in vitro
# Concentration: not given
# Notes: 8-mer, flanks averaged, mean of 2 arrays, mostly near background
# Baseline: not given
# Reading: higher = stronger binding
# Construct (chain): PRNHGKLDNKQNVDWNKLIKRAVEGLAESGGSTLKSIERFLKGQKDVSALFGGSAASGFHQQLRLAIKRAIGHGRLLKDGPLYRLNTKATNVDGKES
Strand,E-score
CAGGCCAG,0.11
TAAACAGA,0.043
CGATCAAC,-0.103
AGCGCGAC,-0.0625
AAGTTGCG,-0.025
CACCCTTC,-0.00289
TAGCGCAA,0.0284
GCCGCGCA,0.2
CACAAGTG,-0.108
AGAAACCT,0.0438
TGAGAGCA,0.14
CATCGAAC,0.099
ACCTAACG,-0.12
GTGTGCCA,0.0747
CCGGCACG,0.126
AGACTAAG,-0.0506
CCCATGGG,0.0869
ACAGAGTG,0.0731
AGTATAAG,-0.0399
ATTCGAGG,0.0355
CGAGTAGC,0.0732
AAAAGTTG,-0.158

# Set 4
# Target: Sal-like protein 4, full length isoform B (SALL4, Homo sapiens, UniProt Q9UJQ4-2, residues 1-616)
# Technique: universal PBM
# Molecule type: double-stranded DNA, one strand shown
# Medium: in vitro
# Concentration: not given
# Notes: 8-mer, flanks averaged, mean of replicates
# Reading: higher = stronger binding
Strand,E-score
GTGGTCTA,-0.0887
GATGCATA,0.12
AATCGAGT,-0.0169
GGTAACCA,-0.131
CGAAATCC,-0.0128
GAGATACA,0.256
CGTGGGAA,-0.111
AGCTTGAT,0.0711
GCATTCCC,-0.129
GTAGCGAC,-0.193
AAAGACCA,-0.0282
CAAGCGAC,-0.118
CGAGGCCA,-0.301
CAATGGTG,-0.134
AAACAAAA,0.215
CAGTGGCA,-0.0833
ATCATAAA,0.391
AGCGATAT,0.219
ATTGCCAA,0.0389
ACAGCATG,-0.118
GAGGGAAC,-0.312
GGCGTAAC,-0.0841
GAACGGTC,-0.205
CGGGCGTA,-0.274
AACGGCCG,-0.198

# Set 5
# Target: Centromere-binding protein 1, full length, N-terminal tag (CBF1, Saccharomyces cerevisiae, UniProt P17106, residues 1-351)
# UniProt P17106, sequence (whole entry, looked up): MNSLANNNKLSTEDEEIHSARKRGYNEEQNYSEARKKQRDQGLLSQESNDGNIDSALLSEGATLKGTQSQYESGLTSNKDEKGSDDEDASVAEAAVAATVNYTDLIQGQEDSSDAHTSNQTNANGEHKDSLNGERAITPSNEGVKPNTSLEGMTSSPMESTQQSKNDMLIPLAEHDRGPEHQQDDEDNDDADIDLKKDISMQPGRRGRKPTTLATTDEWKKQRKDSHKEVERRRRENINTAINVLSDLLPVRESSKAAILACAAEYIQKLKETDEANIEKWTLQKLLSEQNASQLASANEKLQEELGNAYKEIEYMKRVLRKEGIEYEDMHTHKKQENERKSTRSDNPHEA
# Technique: protein-binding microarray
# Molecule type: double-stranded DNA, one strand shown
# Medium: in vitro
# Concentration: 0.8 µM
# Notes: whole 60-bp probe, no competitor
# Reading: higher = stronger binding
# Shared flanks, not repeated: … GTCTTGATTCGCTTGACGCTGCTG
Strand,fluorescence intensity
CCTAACTACTATATGGGCGTGAAATAGCTTCGTACA,495 a.u.
TGTACGAAGCTATCTCACGTGATTATAGTAGTTAGG,12300 a.u.
GAATGCTGCTTGTTTCAGGTGATGTGAACAACGTAG,695 a.u.
CTAGAAATATTCGTGTTCGTGCGTCGCGATTTTTTC,538 a.u.
CTACCCCAGAGACCTCAGCTGAGATAAGTAATATTC,460 a.u.
GAAGAAAAAAACATACACGTGTGTTTTTAGACTTAG,5690 a.u.
CTAGAAAATAATAGAGCCGTGATTTTAATTTCATTC,625 a.u.
GAAGGCTGTTGTTGTCACACGATTCGGACAATTTAG,597 a.u.
GAATGATTGTACATTCATGTGATAATTTGACGCTAG,861 a.u.
GAAATCGCTTCGGGATTCGTGATCATCTGGCTATAG,726 a.u.
GAACGGCAATATAGTCAGATGAGTCACTACGAGTAG,598 a.u.
CTATCTGGAAAAAATCACATGAAAAAATTTCAGTTC,957 a.u.
GAAATGTGAACACGTCATCATAGATGGTTGTTGTAG,546 a.u.
GAATGAGTCCGCACTCACGGGACGAAGACGAAGTAG,730 a.u.
CTATGGTAATGAGGGCTGGTCACAGATTACCTTTTC,513 a.u.
CTATCTCTCCATATTCACCTGTTACCCAGAGGGTTC,548 a.u.
GAAGCTGATTAACGTGACGCTAAAAAAATACCATAG,1790 a.u.
GAAACGGTATATCTTCTGGTGGTAAAAACAATCTAG,498 a.u.
CCTAACTACTATAGTGACATCATATAGCTTCGTACA,537 a.u.
GAACTTGAAATGGTGATCATGACCTTTTGAACATAG,644 a.u.

# Set 6
# Target: CCNF, cyclin fold, Cln2 fusion (human)
# Technique: yeast growth competition, sequencing
# Medium: yeast
# Notes: strong parent motif
# Baseline: not given
# Reading: higher = stronger binding
# Starting sequence: PKN2 docking peptide (human); VSAVRKLDFSDTM
Substitution,normalised enrichment score
VSAVRKLDMSDTM [F9M],6.2
VSAVIKLDFSDTM [R5I],1.22
VSAVRKLDFSNTM [D11N],7.2
VSCVRKLDFSDTM [A3C],6.83
VSAVRKLDFSDAM [T12A],7.14
VSAVRKLDFSDVM [T12V],6.49
VSAVRKLDFWDTM [S10W],7.61
VSAVRKRDFSDTM [L7R],0.23
VSAVRKTDFSDTM [L7T],-0.237
VSANRKLDFSDTM [V4N],7.24
VSAVRKLDFSATM [D11A],7.56
VSAVRLLDFSDTM [K6L],4.97
VSAVRKLDFSETM [D11E],6.81
VSRVRKLDFSDTM [A3R],3.2
VSAVFKLDFSDTM [R5F],0.0569
VSAVLKLDFSDTM [R5L],0.88
VSAVRKLDFSKTM [D11K],7.41
VSAVRCLDFSDTM [K6C],6.52
VSAVHKLDFSDTM [R5H],0.603

# Repeated from above (set 6):
Substitution,normalised enrichment score
VSAVRKTDFSDTM [L7T],-0.237
VSAVHKLDFSDTM [R5H],0.603
VSAVRCLDFSDTM [K6C],6.52
VSAVRKLDFSNTM [D11N],7.2
VSRVRKLDFSDTM [A3R],3.2
VSAVRKLDFWDTM [S10W],7.61
VSAVRKLDFSKTM [D11K],7.41
VSAVRKLDMSDTM [F9M],6.2
VSAVRLLDFSDTM [K6L],4.97
VSAVRKLDFSDAM [T12A],7.14
